Experimental data collected from several papers.
Protocols differ between the studies behind these lines.

CC(C)c1ccc(N(C)c2ccc3c(c2)OCC[C@H]3CNc2cnccc2C(=O)O)cc1 gave an IC50 of 5.64 nM (HCC1599; cell viability, CellTiter-Glo; 7 days).
The EC50 of CC(C)(C)c1cc(-c2ccc3cccnc3n2)nc(-c2ccc3cccnc3n2)c1.COc1ccncc1.[Cl-].[Cl-].[Ru+2].c1ccc2cc3nc4c5cccnc5c5ncccc5c4nc3cc2c1 is reported as 867 nM (A-375; photocytotoxicity, resazurin; visible light 400-700 nm, 20 mW, 100 J/cm2).
With COc1ccccc1-c1ccncc1C(=O)Nc1nnc(OCc2ccc(Cl)cc2)s1 the colony survival was 3.23% (PEO1 BRCA2-mutant; 0.5 µM, added: olaparib 0.5 µM).
Nc1ncc(-c2cc(-c3cnn(CC(F)(F)F)c3)ncc2F)nc1C(=O)NC1CNCC(F)C1 (stereo not shown) gave a remaining binding of 100% (PRKCH; KINOMEscan; 1 µM; baseline: DMSO control).
Under “log2 fold change”, Cc1ncsc1-c1ccc(C(C)NC(=O)C2CC(O)CN2C(=O)C(NC(=O)CCCCCCCCCCN2CCCC(Nc3ncc(Cl)c(Nc4ccccc4S(=O)(=O)C(C)C)n3)C2)C(C)(C)C)cc1 (stereo not shown) is recorded as -1.4 (22Rv1; RNA-seq, measured: PHLDB1 mRNA; concentration not given; baseline: DMSO).
C=C(NC(=O)c1csc(-c2nc3c(cc2O)-c2nc(cs2)C(=O)NC(C(C)O)C(=O)NC(=C(C)OC)c2nc(cs2)C(=O)NC2c4nc(cs4)C(=O)NC(COC(=O)c4c5c6c(cccc6n4O)COC(=O)C(OC4CC(C)(O)C(N(C)C)C(C)O4)C2OC5)c2nc-3cs2)n1)C(N)=O (stereo not shown): “volume of distribution” 0.704 L/kg (cynomolgus monkey, female, plasma; intravenous infusion, 1 mg/kg single dose).
Under “log2 fold change”, COC1CN([C@H]2CC[C@H]([C@@]3(C)Oc4c(Cl)cc(C(=O)NCc5c(SC)cc(C)[nH]c5=O)c(C)c4O3)CC2)C1 is recorded as 0.15 (RNA-seq, measured: MMP9 mouse homolog; mouse, HT-1376 xenograft, whole blood; dose not given; baseline: vehicle).
[Cl-].[Cl-].[Ru+2].c1cc(-c2ccc3cccnc3n2)nc(-c2ccc3cccnc3n2)c1.c1ccc2cc3nc4c5cccnc5c5ncccc5c4nc3cc2c1 gave an EC50 of 4870 nM (A-375; photocytotoxicity, resazurin; visible light 400-700 nm, 20 mW, 100 J/cm2).
The colony count of CO[C@@H]1[C@@H](OC(N)=O)[C@@H](O)[C@H](Oc2ccc3c(O)c(NC(=O)c4ccc(O)c(CC=C(C)C)c4)c(=O)oc3c2C)OC1(C)C is reported as 0.1 (DLD-1 parental; 150 µM, replicate 2).
CN1CCCNC(=O)c2cccc(c2)C(=O)NCCCN(C)CCCNc2cccc3c2C(=O)c2cccc(c2C3=O)NCCC1 — result for “log2 fold change”: -0.608 (SAS; RNA-Seq, measured: ERBB2 mRNA; 1 µM, 6 h; baseline: untreated cells).
With CCN(CC)CC(=O)Nc1cccc(-n2cc(-c3ccc4ccc(-c5cn(-c6cccc(NC(=O)CN(CC)CC)c6)nn5)cc4c3)nn2)c1 the fold regulation was -1.49 (RCC4; PCR angiogenesis array, measured: ANGPTL4; 5 x IC50, 2 h, normoxia; baseline: untreated).
With CNS(=O)(=O)Nc1nccc(Cc2c(C)c3ccc(Oc4ncccc4F)cc3oc2=O)c1F the IC50 was greater than 1000 nM (JAR; cell viability; 7 days).
Under “percent of control”, C=CC(=O)Nc1cccc(Cn2ncc3cnc(Nc4cnn(CCOC)c4)nc32)c1 is recorded as 71% (MELK human; binding, KINOMEscan; 100 nM; lower = stronger binding).
